Assay results pooled from the literature.
Every numbered part comes from another study and shows a few of its results, in no order. “And” joins repeats or separate records; there may be more than shown.
UniProt Q6P3R8, sequence (whole entry, looked up): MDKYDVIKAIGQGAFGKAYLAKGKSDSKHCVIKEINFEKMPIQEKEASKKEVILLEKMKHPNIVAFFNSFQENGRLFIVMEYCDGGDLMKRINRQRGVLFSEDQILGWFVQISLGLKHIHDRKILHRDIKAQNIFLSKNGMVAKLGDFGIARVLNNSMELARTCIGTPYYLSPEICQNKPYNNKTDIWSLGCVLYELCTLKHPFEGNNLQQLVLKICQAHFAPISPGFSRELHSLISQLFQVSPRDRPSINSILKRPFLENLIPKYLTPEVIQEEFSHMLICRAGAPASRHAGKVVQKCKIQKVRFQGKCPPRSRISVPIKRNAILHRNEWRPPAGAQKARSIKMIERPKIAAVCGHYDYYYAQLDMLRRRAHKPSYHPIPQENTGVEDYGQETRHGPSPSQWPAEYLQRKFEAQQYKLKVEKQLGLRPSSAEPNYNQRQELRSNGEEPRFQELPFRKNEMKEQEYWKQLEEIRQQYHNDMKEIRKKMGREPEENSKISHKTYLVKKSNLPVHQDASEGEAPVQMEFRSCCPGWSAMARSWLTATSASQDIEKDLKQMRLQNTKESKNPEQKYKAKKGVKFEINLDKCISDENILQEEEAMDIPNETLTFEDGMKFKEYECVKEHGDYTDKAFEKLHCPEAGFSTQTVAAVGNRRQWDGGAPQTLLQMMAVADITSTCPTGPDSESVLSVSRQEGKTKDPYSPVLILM
UniProt Q9UK32, sequence (whole entry, looked up): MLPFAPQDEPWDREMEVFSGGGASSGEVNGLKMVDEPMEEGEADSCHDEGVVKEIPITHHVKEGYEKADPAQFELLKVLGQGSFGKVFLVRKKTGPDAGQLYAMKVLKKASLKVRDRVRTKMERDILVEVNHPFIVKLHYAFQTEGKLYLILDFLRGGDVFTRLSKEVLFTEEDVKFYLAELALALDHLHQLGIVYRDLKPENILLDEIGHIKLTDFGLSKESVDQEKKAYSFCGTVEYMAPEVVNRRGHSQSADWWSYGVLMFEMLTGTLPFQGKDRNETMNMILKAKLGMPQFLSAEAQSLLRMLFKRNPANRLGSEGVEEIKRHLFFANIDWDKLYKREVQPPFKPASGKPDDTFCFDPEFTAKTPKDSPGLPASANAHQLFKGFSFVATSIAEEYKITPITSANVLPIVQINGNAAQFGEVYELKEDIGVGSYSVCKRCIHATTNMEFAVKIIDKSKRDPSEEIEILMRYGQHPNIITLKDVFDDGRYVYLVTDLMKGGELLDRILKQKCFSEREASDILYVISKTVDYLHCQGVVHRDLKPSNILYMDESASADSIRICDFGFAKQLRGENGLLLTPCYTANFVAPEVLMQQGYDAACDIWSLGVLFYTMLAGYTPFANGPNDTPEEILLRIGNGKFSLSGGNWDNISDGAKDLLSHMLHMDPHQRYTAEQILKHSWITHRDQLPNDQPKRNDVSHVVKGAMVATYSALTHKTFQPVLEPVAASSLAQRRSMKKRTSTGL
UniProt Q86YV6, sequence (whole entry, looked up): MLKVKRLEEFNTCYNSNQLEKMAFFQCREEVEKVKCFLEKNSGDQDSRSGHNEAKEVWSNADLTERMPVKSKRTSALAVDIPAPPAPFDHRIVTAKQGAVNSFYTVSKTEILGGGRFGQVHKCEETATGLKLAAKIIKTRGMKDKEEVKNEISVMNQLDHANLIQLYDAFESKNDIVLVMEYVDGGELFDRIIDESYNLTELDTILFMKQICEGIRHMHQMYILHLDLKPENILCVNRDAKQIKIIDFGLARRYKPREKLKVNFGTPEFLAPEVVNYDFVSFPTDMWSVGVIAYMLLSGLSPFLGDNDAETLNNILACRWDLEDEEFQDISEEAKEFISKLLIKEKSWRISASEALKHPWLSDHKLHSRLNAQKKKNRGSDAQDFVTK
UniProt P49841, sequence (whole entry, looked up): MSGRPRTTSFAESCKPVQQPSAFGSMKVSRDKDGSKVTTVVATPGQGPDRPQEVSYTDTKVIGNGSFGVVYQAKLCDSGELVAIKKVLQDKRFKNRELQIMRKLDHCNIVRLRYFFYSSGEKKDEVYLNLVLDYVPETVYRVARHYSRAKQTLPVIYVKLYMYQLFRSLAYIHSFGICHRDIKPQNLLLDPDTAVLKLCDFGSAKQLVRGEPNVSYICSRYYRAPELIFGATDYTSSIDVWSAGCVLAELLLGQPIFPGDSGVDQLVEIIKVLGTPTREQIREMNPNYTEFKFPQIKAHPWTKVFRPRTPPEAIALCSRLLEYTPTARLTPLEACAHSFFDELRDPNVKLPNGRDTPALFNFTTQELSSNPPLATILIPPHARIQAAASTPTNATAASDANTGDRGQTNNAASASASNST

Set 1
Compound: CN([C@@H]1CCc2c(CC(=O)O)c3cc(S(C)(=O)=O)ccc3n2C1)S(=O)(=O)c1ccc(F)cc1
Read-out: cell-free assay
Method: competition with immobilised ligand
Concentration: 1 µM
| target | remaining binding [%] |
| --- | --- |
| SRSF protein kinase 1 (SRPK1, Homo sapiens, UniProt Q96SB4) | 100 |
| Serine/threonine-protein kinase SBK1 (SBK1, Homo sapiens, UniProt Q52WX2) | 100 |
| Myosin light chain kinase family member 4 (MYLK4, Homo sapiens, UniProt Q86YV6) | 100 |
| Serine/threonine-protein kinase PLK1 (PLK1, Homo sapiens, UniProt P53350) | 93 |
| Serine/threonine-protein kinase haspin (HASPIN, Homo sapiens, UniProt Q8TF76) | 83 |
| Serine/threonine-protein kinase Nek5 (NEK5, Homo sapiens, UniProt Q6P3R8) | 100 |
| Ribosomal protein S6 kinase alpha-6, C-terminal kinase domain (RPS6KA6, Homo sapiens, UniProt Q9UK32) | 100 |
| Serine/threonine-protein kinase 36 (STK36, Homo sapiens, UniProt Q9NRP7) | 98 |
| MAP/microtubule affinity-regulating kinase 4 (MARK4, Homo sapiens, UniProt Q96L34) | 100 |
| Epidermal growth factor receptor (EGFR, Homo sapiens, UniProt P00533, del746-750) | 82 |
| Mitogen-activated protein kinase kinase kinase kinase 2 (MAP4K2, Homo sapiens, UniProt Q12851) | 90 |
| Glycogen synthase kinase-3 beta (GSK3B, Homo sapiens, UniProt P49841) | 85 |
| Ribosomal protein S6 kinase alpha-4, N-terminal kinase domain (RPS6KA4, Homo sapiens, UniProt O75676) | 100 |
| Receptor-type tyrosine-protein kinase FLT3 (FLT3, Homo sapiens, UniProt P36888, D835V/ITD) | 91 |

Set 2
Target: His6 tag
Method: AlphaScreen counter screen
Concentration: concentration not given
| SMILES | inhibition [%] |
| --- | --- |
| O=C(CSc1ccc2nnc(-c3cccc(F)c3)n2n1)Nc1cccc(F)c1 | -7.85 |
| COC(=O)c1[nH]c2ccccc2c1NC(=O)CN(C)CC1OCCO1 | -15 |
| O=C(Nc1cc(C(F)(F)F)ccc1N1CCCCC1)c1ccncc1 | -10.4 |
| Cc1c(C(=O)N2CCCCC2)sc2nc[nH]c(=O)c12 | 3.3 |
| COc1ccc(-c2cc3c(C)nc(N)nc3n([C@H]3CC[C@H](OCCO)CC3)c2=O)cn1.O.O | -22.6 |
| O=C1NC(=O)C(=Cc2cccc(OCc3ccc(Cl)cc3Cl)c2)S1 | 12.7 |
| O=C(CSc1ccc2nnc(-c3cccc(F)c3)n2n1)Nc1ccc(Cl)cc1 | -17.6 |
| CC1CCc2nc(C(C#N)=Cc3ccncc3)sc2C1 (centres unmarked) | 5.75 |
| CC(C)[C@H](CO)Nc1nc(Nc2ccc(C(=O)O)c(Cl)c2)c2ncn(C(C)C)c2n1 | -5.4 |
| CCCCCCCCCCCCCCCCCCOP(=O)([O-])OC1CC[N+](C)(C)CC1 | -9.7 |
| OC1CCCN(Cc2c(-c3ccc(F)cc3)[nH]c3ncccc23)C1 (centres unmarked) | 0.9 |
| CCn1c(C(=O)N(C2CC2)C2CC2)cc2c3c(ncn3C)c(Nc3cc(C)n(C)n3)nc21 | -10.8 |
| O=C(NCC(F)(F)F)c1n[nH]c2ccccc12 | 1.5 |
| Fc1cccc(-c2nnc3ccc(SCc4cccnc4)nn23)c1 | -12.2 |
| Cc1sc2nc[nH]c(=O)c2c1-c1ccc(F)cc1 | 0.45 |
| CCCOc1ccc(NC(=O)Nc2ccc(Cl)c(Cl)c2)cc1 | 6.4 |
| O=C(Nc1ccc(F)cc1)c1n[nH]c2ccccc12 | 2.75 |

Set 3
Target: Serine/threonine-protein kinase haspin (HASPIN, Homo sapiens, UniProt Q8TF76)
Read-out: enzyme activity
Action: inhibitor
Concentration: 0.5 µM
Relative to: control
Target sequence (Q8TF76 1-798): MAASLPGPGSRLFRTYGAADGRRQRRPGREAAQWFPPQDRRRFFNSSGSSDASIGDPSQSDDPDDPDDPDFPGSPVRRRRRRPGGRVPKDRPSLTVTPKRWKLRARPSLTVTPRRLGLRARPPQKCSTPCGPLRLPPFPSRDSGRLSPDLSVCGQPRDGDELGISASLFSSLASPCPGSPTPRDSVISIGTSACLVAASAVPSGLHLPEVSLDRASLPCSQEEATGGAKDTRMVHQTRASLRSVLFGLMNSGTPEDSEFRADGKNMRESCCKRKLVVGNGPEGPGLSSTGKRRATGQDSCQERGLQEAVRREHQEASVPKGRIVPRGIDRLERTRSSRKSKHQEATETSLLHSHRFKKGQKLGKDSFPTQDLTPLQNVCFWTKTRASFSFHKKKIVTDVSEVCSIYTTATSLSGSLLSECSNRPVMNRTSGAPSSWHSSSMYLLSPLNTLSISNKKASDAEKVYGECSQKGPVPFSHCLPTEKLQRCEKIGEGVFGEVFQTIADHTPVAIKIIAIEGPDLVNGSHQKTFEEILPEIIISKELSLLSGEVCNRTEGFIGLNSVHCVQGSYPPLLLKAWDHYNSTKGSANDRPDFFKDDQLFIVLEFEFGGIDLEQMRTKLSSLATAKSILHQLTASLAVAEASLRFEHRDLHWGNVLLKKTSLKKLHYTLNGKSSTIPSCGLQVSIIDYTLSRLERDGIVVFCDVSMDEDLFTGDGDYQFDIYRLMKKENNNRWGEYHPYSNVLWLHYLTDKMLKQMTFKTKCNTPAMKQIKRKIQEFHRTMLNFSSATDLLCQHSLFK
| Compound | remaining activity [%] |
| --- | --- |
| CC(C)c1nn(-c2c(Cl)cccc2Cl)c2nc(Cc3ccc(OCCO)cc3)[nH]c(=O)c12 | 94.3 |
| CS(=O)(=O)CCNCc1ccc(-c2ccc3ncnc(Nc4ccc(OCc5cccc(F)c5)c(Cl)c4)c3c2)o1 | 66.5 |
| COc1ccc(-c2cnc3c(-c4ccsc4)cnn3c2)cc1 | 77.2 |
| CN(C)CCCn1cc(C2=C(c3c[nH]c4ccccc34)C(=O)NC2=O)c2ccccc21 | 93.6 |
| COc1ccc(Cl)cc1NC(=O)Nc1cc(C)nc2ccccc12 | 95.7 |
| COc1cc2ncnc(Nc3ccc(OCc4ccccc4)cc3)c2cc1OC | 86.2 |
| CC(=O)O/N=C1/C(c2c(O)[nH]c3cc(Br)ccc23)=Nc2ccccc21 | 85.5 |
| Cc1ccc(NC(=O)c2ccc(CN3CCN(C)CC3)cc2)cc1Nc1nccc(-c2cccnc2)n1 | 92.7 |
| COc1cc2ncnc(N3CCN(C(=O)Nc4ccc(Oc5ccccc5)cc4)CC3)c2cc1OC | 93.2 |
| CCN1/C(=C/C(C)=O)Sc2ccc(OC)cc21 | 25 |
| CC(C)[C@H](CO)Nc1nc(Nc2cccc(Cl)c2)c2ncn(C(C)C)c2n1 | 93.6 |
| O=c1cc(N2CCOCC2)oc2c1ccc1ccccc12 | 85.6 |
| O=C1NC(=O)/C(=C/c2ccc3nccnc3c2)S1 | 38.8 |
| CCOc1cc2ncnc(Nc3cccc(Br)c3)c2cc1OCC | 90.6 |
| Cn1cnc2cc3c(Nc4cccc(Br)c4)ncnc3cc21 | 89.4 |
| COc1cc2ncc(-c3ccccc3)nc2cc1OC | 92.1 |
| CCC(=O)Nc1ccc2ncnc(Nc3cccc(Br)c3)c2c1 | 95.2 |
| Cc1nc(Nc2ncc(C(=O)Nc3c(C)cccc3Cl)s2)cc(N2CCN(CCO)CC2)n1 | 91.9 |
| C[S+]([O-])c1ccc(-c2nc(-c3ccncc3)c(-c3ccc(F)cc3)[nH]2)cc1 (centres unmarked) | 88.2 |
| Cn1cc(/C=C2\C(=O)Nc3ccc(S(N)(=O)=O)cc32)c2ccccc21 | 93.1 |
| O=C(Nc1ccc(Cl)cc1)c1ccccc1NCc1ccncc1 | 95.5 |
| Nc1[nH]nc2nnc(-c3c(-c4ccccc4)nn4ccccc34)cc12 | 97.1 |

Set 4
Target: DNA polymerase theta, ATPase domain (POLQ, Homo sapiens, UniProt O75417)
UniProt O75417, sequence (whole entry, unmodified, looked up): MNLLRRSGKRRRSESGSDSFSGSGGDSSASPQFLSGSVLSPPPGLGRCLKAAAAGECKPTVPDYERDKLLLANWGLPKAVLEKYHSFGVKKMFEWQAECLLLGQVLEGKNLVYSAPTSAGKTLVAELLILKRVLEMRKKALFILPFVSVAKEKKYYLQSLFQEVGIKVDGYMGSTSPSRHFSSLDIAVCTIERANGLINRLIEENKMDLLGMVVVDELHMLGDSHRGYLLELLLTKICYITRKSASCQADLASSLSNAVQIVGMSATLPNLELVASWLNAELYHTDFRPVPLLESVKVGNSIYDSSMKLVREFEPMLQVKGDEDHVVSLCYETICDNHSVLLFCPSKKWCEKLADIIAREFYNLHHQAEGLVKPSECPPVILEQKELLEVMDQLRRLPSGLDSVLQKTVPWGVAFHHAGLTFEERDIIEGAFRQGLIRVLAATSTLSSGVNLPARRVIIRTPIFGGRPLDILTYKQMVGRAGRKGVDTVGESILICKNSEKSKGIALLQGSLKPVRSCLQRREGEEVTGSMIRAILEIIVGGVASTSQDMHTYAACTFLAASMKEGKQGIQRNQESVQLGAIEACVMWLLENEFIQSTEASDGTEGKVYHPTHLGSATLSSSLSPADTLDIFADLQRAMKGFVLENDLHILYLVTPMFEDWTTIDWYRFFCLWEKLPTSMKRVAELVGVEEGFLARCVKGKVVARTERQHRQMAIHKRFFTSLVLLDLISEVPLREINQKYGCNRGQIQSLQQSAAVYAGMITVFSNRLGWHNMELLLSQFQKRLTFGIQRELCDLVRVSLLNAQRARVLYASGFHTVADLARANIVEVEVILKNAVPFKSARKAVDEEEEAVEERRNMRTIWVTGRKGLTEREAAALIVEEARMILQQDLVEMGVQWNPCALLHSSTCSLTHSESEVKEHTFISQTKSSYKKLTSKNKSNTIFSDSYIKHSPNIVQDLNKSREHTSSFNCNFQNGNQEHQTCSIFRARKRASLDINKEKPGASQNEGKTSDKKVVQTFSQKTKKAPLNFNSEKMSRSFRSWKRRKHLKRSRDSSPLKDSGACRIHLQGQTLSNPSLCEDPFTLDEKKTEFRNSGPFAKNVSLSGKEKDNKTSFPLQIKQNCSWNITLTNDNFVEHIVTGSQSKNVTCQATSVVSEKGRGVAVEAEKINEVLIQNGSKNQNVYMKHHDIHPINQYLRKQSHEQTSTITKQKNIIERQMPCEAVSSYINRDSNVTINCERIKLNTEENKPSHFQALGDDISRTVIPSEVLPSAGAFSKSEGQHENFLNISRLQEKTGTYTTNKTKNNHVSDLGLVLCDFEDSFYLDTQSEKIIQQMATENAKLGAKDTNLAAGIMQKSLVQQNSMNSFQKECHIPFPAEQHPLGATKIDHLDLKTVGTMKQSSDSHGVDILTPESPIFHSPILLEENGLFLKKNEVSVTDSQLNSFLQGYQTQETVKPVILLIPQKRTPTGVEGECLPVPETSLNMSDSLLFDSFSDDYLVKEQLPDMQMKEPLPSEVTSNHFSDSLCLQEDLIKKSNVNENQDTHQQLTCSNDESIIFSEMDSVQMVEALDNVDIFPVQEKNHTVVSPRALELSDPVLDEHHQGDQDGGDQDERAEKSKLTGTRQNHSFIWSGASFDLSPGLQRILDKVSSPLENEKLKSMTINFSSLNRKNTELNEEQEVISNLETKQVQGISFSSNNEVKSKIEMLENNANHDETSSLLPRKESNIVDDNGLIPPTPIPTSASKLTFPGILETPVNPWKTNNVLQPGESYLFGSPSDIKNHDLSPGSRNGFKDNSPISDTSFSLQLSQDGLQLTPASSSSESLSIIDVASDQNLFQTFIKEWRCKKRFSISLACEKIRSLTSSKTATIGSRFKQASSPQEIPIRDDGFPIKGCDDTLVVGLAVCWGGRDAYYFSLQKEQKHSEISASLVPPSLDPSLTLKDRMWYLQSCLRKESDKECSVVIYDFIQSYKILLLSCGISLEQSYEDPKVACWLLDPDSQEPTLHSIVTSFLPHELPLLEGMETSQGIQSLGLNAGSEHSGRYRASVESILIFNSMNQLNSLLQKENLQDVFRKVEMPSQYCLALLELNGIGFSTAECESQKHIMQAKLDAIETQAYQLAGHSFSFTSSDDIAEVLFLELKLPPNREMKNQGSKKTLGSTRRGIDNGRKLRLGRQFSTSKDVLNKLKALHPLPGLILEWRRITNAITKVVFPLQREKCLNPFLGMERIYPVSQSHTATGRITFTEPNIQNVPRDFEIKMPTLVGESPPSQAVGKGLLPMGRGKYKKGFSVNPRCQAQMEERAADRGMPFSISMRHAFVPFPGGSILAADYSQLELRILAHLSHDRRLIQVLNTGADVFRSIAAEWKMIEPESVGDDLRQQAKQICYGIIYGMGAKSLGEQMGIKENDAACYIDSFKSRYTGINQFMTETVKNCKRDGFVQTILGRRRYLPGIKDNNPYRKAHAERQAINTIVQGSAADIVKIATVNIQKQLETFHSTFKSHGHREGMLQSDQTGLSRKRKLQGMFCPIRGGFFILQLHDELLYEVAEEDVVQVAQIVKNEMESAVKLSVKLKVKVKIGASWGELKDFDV
Read-out: enzyme activity
Action: inhibitor
Concentration: 77 µM
Relative to: untreated
| SMILES | remaining activity |
| --- | --- |
| C=C1CC[C@H](O)C/C1=C/C=C1\CCC[C@]2(C)[C@@H]([C@H](C)CCCC(C)(C)O)CC[C@@H]12 | 103% |
| C[N+]12CCC(CC1)C(OC(=O)C(O)(c1ccccc1)c1ccccc1)C2 (centres unmarked) | 97.7% |
| COCCOc1nc(-c2ccc(Cl)c(Cl)c2)n(-c2ccc(NC(=O)CCl)cc2)n1 | 94.4% |
| [N-]=[N+]=Nc1ccc(C(=O)CSC[C@H](NC(=O)CC[C@H](N)C(=O)O)C(=O)NCC(=O)O)cc1 | 85.5% |
| CC(C)c1cc(-c2n[nH]c(=O)n2-c2ccc3c(ccn3C)c2)c(O)cc1O | 102% |
| Clc1ccc(C(Cn2ccnc2)OCc2csc3c(Cl)cccc23)c(Cl)c1 (centres unmarked) | 99.6% and 101% |
| COc1c(O)cc2c(c1O)[C@@H]1O[C@H](CO)[C@@H](O)[C@H](O)[C@H]1OC2=O | 106% and 101% |
| CO[C@H]1/C=C/O[C@@]2(C)Oc3c(C)c(O)c4c(O)c(c(/C=N/N5CCN(C6CCCC6)CC5)c(O)c4c3C2=O)NC(=O)/C(C)=C\C=C\[C@H](C)[C@H](O)[C@@H](C)[C@@H](O)[C@@H](C)[C@H](OC(C)=O)[C@@H]1C | 89.1% |
| COc1cc(C(=O)NC2CCCNC2)cc(OC)c1OC (centres unmarked) | 96.3% |

Some of these lines once more (set 1):
| target | remaining binding [%] |
| --- | --- |
| Glycogen synthase kinase-3 beta (GSK3B, Homo sapiens, UniProt P49841) | 85 |
| Receptor-type tyrosine-protein kinase FLT3 (FLT3, Homo sapiens, UniProt P36888, D835V/ITD) | 91 |
| Epidermal growth factor receptor (EGFR, Homo sapiens, UniProt P00533, del746-750) | 82 |
| Myosin light chain kinase family member 4 (MYLK4, Homo sapiens, UniProt Q86YV6) | 100 |
| Serine/threonine-protein kinase PLK1 (PLK1, Homo sapiens, UniProt P53350) | 93 |
| Ribosomal protein S6 kinase alpha-4, N-terminal kinase domain (RPS6KA4, Homo sapiens, UniProt O75676) | 100 |
| Serine/threonine-protein kinase haspin (HASPIN, Homo sapiens, UniProt Q8TF76) | 83 |
| Serine/threonine-protein kinase Nek5 (NEK5, Homo sapiens, UniProt Q6P3R8) | 100 |
